Experimental data of several laboratories.
Lines come from different studies, so protocols differ.
Target: Casein kinase I isoform delta (CSNK1D, Homo sapiens, UniProt P48730)
Chain of UniProt P48730 (whole entry, looked up): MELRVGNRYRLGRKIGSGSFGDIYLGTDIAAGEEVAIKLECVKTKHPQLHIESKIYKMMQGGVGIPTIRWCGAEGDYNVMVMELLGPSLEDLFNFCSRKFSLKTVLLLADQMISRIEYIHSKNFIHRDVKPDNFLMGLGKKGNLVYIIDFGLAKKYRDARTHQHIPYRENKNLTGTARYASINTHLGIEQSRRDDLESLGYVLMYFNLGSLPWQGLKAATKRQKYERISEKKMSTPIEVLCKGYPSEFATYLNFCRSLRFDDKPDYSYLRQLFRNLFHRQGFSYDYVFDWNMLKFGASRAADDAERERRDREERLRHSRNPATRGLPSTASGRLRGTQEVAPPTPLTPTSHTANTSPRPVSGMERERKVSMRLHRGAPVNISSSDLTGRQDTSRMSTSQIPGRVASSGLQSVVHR

SMILES	assay	setting	scale	endpoint	result
COC(=O)c1ccc(-c2nc(-c3cccc(C)c3)c(-c3ccncc3)[nH]2)cc1	kinase activity	1 µM	–	inhibition	10%
Cc1ccc(-n2nc(C)c3c(N)nc(N)nc32)c(Cl)c1	KinomeScan competition	7.5 µM	–	remaining binding	16%
Cn1c(=O)n(-c2ccc(C(C)(C)C#N)cc2)c2c3cc(-c4cnc5ccccc5c4)ccc3ncc21	enzyme activity	10 µM	–	remaining activity	96%
Oc1ccc(-c2nc(-c3ccncc3)c(-c3ccc(F)cc3)[nH]2)cc1	inhibitor	1 µM	–	inhibition	57%
COc1cc(F)ccc1-c1ncnc(Nc2cccc(C[S@](C)(=N)=O)c2)n1	kinase activity	10 µM, with: 10 µM ATP	–	remaining activity	97%
CC(C)(C)C(=O)c1sc(NC2CCCCC2)nc1N	enzyme activity, inhibitor	10 µM	–	remaining activity	74%
Cc1cc(Nc2cc(N3CCN(C)CC3)nc(Sc3ccc(NC(=O)C4CC4)cc3)n2)[nH]n1	kinase activity, KinaseProfiler	0.03 µM, species human	relative to: control	remaining activity	121%
Fc1ccc(-c2ncn(-c3ccc(-c4ccccc4)cc3)c2-c2ccncc2)cc1	inhibitor	1 µM	–	inhibition	6%
O=C1NC(=O)/C(=C/c2ccc(-c3ccc(F)cc3O)o2)S1	enzyme activity	10 µM	–	remaining activity	85%
Nc1nc(Nc2ccccc2)sc1C(=O)c1c(F)cccc1F	enzyme activity, inhibitor	10 µM	–	remaining activity	13%
CNc1ncc2c(/C=C/C(=O)N3CCC(OC)CC3)nn(Cc3cccc(C(F)(F)F)c3)c2n1	kinase activity, inhibitor	1 µM	relative to: untreated control	remaining activity	102%

A few entries again:
SMILES	assay	setting	scale	endpoint	result
Nc1nc(Nc2ccccc2)sc1C(=O)c1c(F)cccc1F	enzyme activity, inhibitor	10 µM	–	remaining activity	13%
